Experimental data gathered from unrelated publications.
Compare with care: the assays were run in different laboratories. “And” joins repeats or separate records; there may be more than shown. ± marks the error that the study gave.

`N[C@@H]1c2ccccc2OC12CCN(c1cnc3c(N4CCCc5ncccc54)n[nH]c3n1)CC2`: “TEAE leading to interruption” 28.6% (advanced metastatic solid tumour patients; oral, 100 mg once daily).
`CN1CC[C@@H](c2c(O)cc(O)c3c(=O)cc(-c4ccc(C(F)(F)F)cc4Cl)oc23)[C@@H]1CO` — result for “patients with adverse event”: 33.3% (item: Diarrhea; B-cell malignancies; oral, 150 mg, intermittent dosing).
`O=C(c1ccc(F)c(F)c1Nc1ccc(I)cc1F)N1CC(O)([C@@H]2CCCCN2)C1`: “treatment-related serious AE” 7% (patients aged sample A to sample B years; oral, dose not given).
Under “daily dermal exposure dose”, `CC(C)(C)c1cc(-n2nc3ccccc3n2)c(O)c(C(C)(C)C)c1` is recorded as 4.63 ng/kg/day (human aged 11-16 years; concentration not given, sunscreen, 95th percentile).
Under “AEs causing dose modification”, `CO[C@H]1C[C@@H]2CC[C@@H](C)[C@@](O)(O2)C(=O)C(=O)N2CCCC[C@H]2C(=O)O[C@H]([C@H](C)C[C@@H]2CC[C@@H](OC(=O)NCCOCCOCCOCCOCCOCCOCCOCCOCCC(=O)N3CCc4cc(Cn5nc(-c6ccc7oc(N)nc7c6)c6c(N)ncnc65)ccc4C3)[C@H](OC)C2)C[C@@H](O)[C@H](C)/C=C(\C)[C@@H](O)[C@@H](OC)C(=O)[C@H](C)C[C@H](C)/C=C/C=C/C=C/1C` is recorded as 87.5% (phase 1 dose escalation; advanced solid tumour patients; intravenous, 10 mg weekly, any grade).
The tissue uptake of `CC[C@H](C)[C@H](NC(=O)[C@H](Cc1ccccc1)NC(=O)[C@H](CCC(=O)O)NC(=O)[C@H](CCCNC(=N)N)NC(=O)[C@H](C)NC(=O)[C@H](C)NC(=O)[C@H](CCC(N)=O)NC(=O)[C@H](CCC(=O)O)NC(=O)[C@H](CCC(=O)O)NC(=O)[C@H](CC(C)C)NC(=O)[C@H](Cc1ccc(O)cc1)NC(=O)[C@H](CO)NC(=O)[C@H](CO)NC(=O)[C@@H](NC(=O)[C@H](CC(=O)O)NC(=O)[C@H](CO)NC(=O)[C@@H](NC(=O)[C@H](Cc1ccccc1)NC(=O)[C@@H](NC(=O)CNC(=O)[C@H](CCC(=O)O)NC(=O)[C@H](C)NC(=O)CCc1cnc[nH]1)[C@@H](C)O)[C@@H](C)O)C(C)C)C(=O)N[C@@H](C)C(=O)N[C@@H](Cc1c[nH]c2ccccc12)C(=O)N[C@@H](CC(C)C)C(=O)N[C@H](C(=O)N[C@@H](CCCNC(=N)N)C(=O)NCC(=O)N[C@@H](CCCNC(=N)N)C(=O)N[C@@H](CCCCNC(=O)COCCOCCNC(=O)COCCOCCNC(=O)CC[C@H](NC(=O)CCCCCCCCCCCCCCCCC(=O)O)C(=O)O)C(=O)NCC(=O)NCC(=O)N[C@@H](CO)C(=O)N[C@@H](CCCCNC(=O)[C@H](CCCCNc1c(NCCCCCN(O)C(=O)CCC(=O)NCCCCCN(O)C(=O)CCC(=O)NCCCCCN(O)C(C)=O)c(=O)c1=O)Nc1c(NCCCCCN(O)C(=O)CCC(=O)NCCCCCN(O)C(=O)CCC(=O)NCCCCCN(O)C(C)=O)c(=O)c1=O)C(=O)O)C(C)C` [zirconium-89 labelled] is reported as 0.158 %ID/g and 0.169 %ID/g and 0.183 %ID/g and 0.179 %ID/g (ex vivo gamma counting; Sprague-Dawley rat, male, stomach; intravenous, 1 nmol, 24 h).
`CC(C)[C@H](C(=O)O[C@H](C#N)c1cccc(Oc2ccccc2)c1)c1ccc(Cl)cc1` — result for “enzyme contribution to clearance”: 20% (item: CYP2C9; human, age 6 months).
For `CC(=O)c1c(C)c2cnc(Nc3ccc(C4CCN(CCS(C)(=O)=O)CC4)cn3)nc2n(C2CCCC2)c1=O`, the AUC(0-t) was 1320 ng·h/mL (beagle dog, female, fasted, blood; oral gavage, 15 mg/kg, acidified methylcellulose vehicle).
`CC[C@H](C)[C@@H]1NC(=O)[C@@H]2CCCN2C(=O)[C@H](CC(C)C)NC(=O)[C@H](CC(C)C)NC(=O)CNC(=O)[C@@H](NC(=O)[C@@H](NC(=O)[C@H](CC(=O)O)NC(=O)CNC(=O)[C@@H](NC(=O)[C@H](C)NC(=O)CNC(=O)[C@H](CCCCN)NC(=O)[C@H](CC(C)C)NC(=O)[C@H](CC(C)C)NC(=O)[C@H](CCCCN)NC(=O)CNC(=O)[C@@H](NC(=O)[C@@H](N)CC(C)C)C(C)C)C(C)C)C(C)C)CSSC[C@@H](C(=O)O)NC1=O` has an elimination half-life of 6.59 ± 0.23 h (female C57BL/6 mice, plasma; intravenous, 10 mg/kg, two-compartment model).
For `COc1cc2c(Oc3ccc4[nH]c(C)cc4c3F)ccnc2cc1OCC1(N)CC1`, “grade 1 or 2 Hyperthyroidism” read 2.9% (paediatric recurrent refractory sarcoma; concentration not given, whole group).
`COc1ccc(-c2c(-c3ccc(C#N)c(F)c3)nc(N3CCC(N)CC3)n(C)c2=O)cc1F`: “serious adverse event incidence” 2% (item: Hematemesis; human patients; oral, dose not given, dose escalation, NG).
With `COc1ncccc1-c1cnn2ccc(N3CCN(C(=O)OC(C)C)CC3)nc12` the drug concentration was 3600 nM (mouse nerve ligation model, plasma; oral, 10 mg/kg, 30 min after last dose, repeat dosing day 2).
The body weight of `Oc1ccc(CSCc2ccc(O)cc2)cc1` is reported as 35.9 ± 1.87 g (ICR mice male; oral, 6000 mg/kg, day 8, acute toxicity).
`O=C(NCCN1CCCC1)c1cc(-c2ccc(CN3CCOCC3)cc2)nc2ccc(F)cc12`: “concentration at 24 h” 96 nM (NMRI mouse Plasmodium berghei-infected, blood; oral, 1.5 mg/kg, 24 h, monotherapy).
`C[C@@H](c1ncncc1F)[C@](O)(Cn1cncn1)c1ccc(F)cc1F` gave a deaths of 0% (human; oral, 200 mg, drug interaction trial).
For `C[C@]1(CO)Cc2ncn(-c3ccc(C#N)c(Cl)c3)c2C(=O)O1`, “drug-related Dizziness incidence” read 0% (Japanese subjects; 3 mg single dose).
With `CC(C)C[C@H](NC(=O)[C@H](CCCCN)NC(=O)OCC1c2ccccc2-c2ccccc21)C(=O)N[C@H](C(=O)N[C@@H](Cc1ccccc1)C(=O)N[C@@H](Cc1ccccc1)C(=O)N[C@@H](CCCCN)C(=O)NCC(=O)N[C@@H](Cc1ccccc1)C(=O)N[C@@H](C)C(=O)N[C@@H](Cc1c[nH]c2ccccc12)C(=O)N[C@@H](CC(N)=O)C(=O)N[C@H](C(=O)N[C@H]1CSSC[C@@H](C(=O)N[C@@H](Cc2c[nH]cn2)C(=O)N[C@@H](CCCNC(=N)N)C(=O)N[C@@H](CCCNC(=N)N)C(=O)N[C@@H](C)C(=O)N[C@@H](CC(N)=O)C(N)=O)NC(=O)[C@H](C(C)C)NC(=O)[C@H](CCCNC(=N)N)NC(=O)[C@H](C(C)C)NC(=O)CNC(=O)[C@H](CC(N)=O)NC(=O)[C@H](CCCNC(=N)N)NC(=O)[C@H](Cc2ccc(O)cc2)NC(=O)[C@H](C(C)C)NC1=O)C(C)C)C(C)C` the ALT was 49.8 ± 3.35 IU/L (ICR mouse, blood; intramammary, 5 mg/kg, day 5, 3 d dosing).
`CCCCCOc1ccc(-c2ccc(-c3ccc(C(=O)N[C@H]4C[C@@H](O)[C@@H](OCC[N+](C)(C)C)NC(=O)[C@@H]5[C@@H](O)[C@@H](C)CN5C(=O)[C@H]([C@@H](C)O)NC(=O)[C@H]([C@H](O)[C@@H](O)c5ccc(O)cc5)NC(=O)[C@@H]5C[C@@H](O)CN5C(=O)[C@H]([C@@H](C)O)NC4=O)cc3)cc2)cc1` has a potassium of 4.1 mmol/L (adult ICU patients, mITT, serum; dose not given, Follow-up).
For `O=C(O)CCCOc1ccc(F)cc1-c1cc(-c2ccccc2C(F)(F)F)n(-c2ccccc2)n1`, “serum protein fraction” read 18.8 ± 0.9% (item: α1-glb; Crl:CD(SD) rats, female, serum; iv, 25 µg/kg, 14 days).
For `CC(C)CC(=O)OC[C@H]1O[C@@](C#N)(c2ccc3c(N)ncnn23)[C@H](O)[C@@H]1O`, the remaining compound was 0.12 ± 0.01% (Humans plasma; 5 µM, 60 min).
For `CCc1ccc(CC/C=C/c2ccc3c(c2)C(=O)CC3)cc1`, “platelet distribution width” read 49.5% (Sprague-Dawley rat, female, blood; oral, 450 mg/kg/day, 14 days).
For `O=c1ccc2cc3ccoc3cc2o1`, the accuracy was 117% (post-procedure stability; rat plasma; 200 ng/mL, 3 h, room temperature).
`NC(=O)[C@H]1CCN(c2ncnc(N)c2F)C[C@@H]1N1CCC[C@@H](Nc2cc(Cl)cc(C(F)(F)F)c2)C1=O` — result for “grade ≥3 leukocytosis”: 0% (B-cell malignancy patients; oral, 246 mg twice daily, dose).
For `CCCCN1CCC(COC(=O)c2ccc(N)c(O[11CH3])c2)CC1`, “time to peak radioactivity” read 5 min (PET; rhesus monkey, whole brain; dose not given, average).
The ALP of `Nc1ncnc2c1ncn2[C@@H]1O[C@@H]2COP(=O)([S-])O[C@@H]3[C@H](O)[C@@H](COP([O-])(=S)O[C@H]2[C@H]1O)O[C@H]3n1cnc2c(N)ncnc21.[Na+].[Na+]` (stereo partly drawn) is reported as 109 ± 28.5 U/L (non-tumor-bearing mice, serum; intravenous, 1 mg/kg, toxicity study).
With `COc1ccc(CCC2CCCC(CCc3ccc(OC)cc3)N2C[C@@H](O)CO)cc1.Cl` (stereo in doubt) the APD90 change was 23.8 ± 1.4% (rabbit Purkinje fibres; 0.1 µM, cycle length 1 s; relative to: baseline).
For `CC(C)Nc1ccnc(Nc2cccc(-c3cccnc3)c2)n1`, the blood chemistry was 207 U/L (item: alkaline phosphatase; mouse, blood; intraperitoneal, 5 mg/kg).
